Measured values collected from several papers.
Every numbered part comes from another study and shows a few of its results, in no order.

Sample 1
Target: Sal-like protein 4, full length isoform B (SALL4, Homo sapiens, UniProt Q9UJQ4-2, residues 1-616)
Technique: universal PBM
Form: double-stranded DNA, one strand shown
Sample: in vitro
Tested at: not given
Notes: 8-mer, flanks averaged, mean of replicates
Reading: higher = stronger binding
Quantity: E-score
CTAATTCA: 0.258
CACCCTCA: -0.0765
GCTCGTTA: 0.0201
CAGTACGA: 0.0848
AACGCCTA: -0.00957
AAACGATC: 0.202
CGATAGAC: -0.0221

Sample 2
Target: Histone acetyltransferase KAT6A, winged helix 2, GST fusion (KAT6A, Homo sapiens, UniProt Q92794, residues 85-181)
Technique: protein binding microarray
Form: double-stranded DNA, one strand shown
Sample: in vitro
Tested at: not given
Notes: 8-mer, flanks averaged, mean of 2 arrays, mostly near background
Relative to: not given
Reading: higher = stronger binding
Quantity: E-score
Residues (chain): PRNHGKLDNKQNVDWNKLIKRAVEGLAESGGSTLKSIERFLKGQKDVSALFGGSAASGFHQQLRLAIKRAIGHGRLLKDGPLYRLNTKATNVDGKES
GGATCCAA: 0.0352
AGAGTAGC: -0.049
AAACAACA: 0.0738
TAATTAGA: 0.0171
AACGTGTA: -0.104
GCAGTTGA: -0.0513
GCCTTCAA: -0.119

Sample 3
Target: Interferon regulatory factor 5, full length, phosphomimetic (IRF5, Homo sapiens, UniProt Q13568-2, residues 1-514, S451D/S453D/S456D/S462D)
Technique: protein-binding microarray
Form: double-stranded DNA, one strand shown
Sample: in vitro
Tested at: 940 nM top
Notes: 60-bp whole probe
Added: salmon DNA 0.4 mg/ml
Relative to: random background probes
Reading: higher = stronger binding
Quantity: fitted relative affinity
Shared flanks, not repeated: GCCTAGCAC … GTCTTGATTCGCTTGACGCTGCTG
TCTCTTTTCACTTTCTTTACGTGCTAG: 4.94 z-score
TTAGATATCGGTTTCGATTAGTGCTAG: 7.69 z-score
CTTTAACTCATTTTCATTTTGTGCTAG: 1.6 z-score
TTAGGTTTCGACTATGGGTTAGTGCTA: 9.42 z-score
GGGTGAATGTGTCTTAAATAGTGCTAG: 0.0948 z-score
TTAGGTTTCGGTTTCTGTTAGTGCTAG: 15.1 z-score
TTAGATCTCAGACTGGGTTAGTGCTAG: -0.267 z-score

Single results of other studies
PhoQ, residues 284 288 289 292 302 303 SMYGEC — fold induction (PhoP, residues 12 14 15 18 19 SEGLL (Escherichia coli, UniProt P23836); Sort-seq, item: YFP reporter; E. coli; PhoQ-PhoP variant library, added: 10 µM Mg2+; relative to: high Mg2+ state, higher = stronger signaling): 15.5

For quick reference, copied from above (sample 2):
GCAGTTGA: -0.0513
GCCTTCAA: -0.119
